Measurements of several laboratories.
Every numbered part comes from another study and shows a few of its results, in no order.

Sample 1
Target: RNA binding protein fox-1 homolog 2, RRM domain, GST-SBP tag (RBFOX2, Homo sapiens, UniProt O43251-10, residues 100-194)
Technique: RNA Bind-n-Seq
Form: RNA
Matrix: in vitro
Tested at: 365 nM
Setting: natural RNA segment, single round, ends assumed
Reference: no-protein control
Reading: higher = stronger binding
`GGGAGUUCUACAGUCCGACGAUCGAGUUUUAAAGUCUGAGUAUUUCAAAUUAUCAGUGUUGCUUUGUGAAGAUAUGUGUGUGUGUAUAUUCAACUUUGAUGGCUUCCGGAUCUGUAAGAUUGUAUGCUGUAUAUGGAAUUCUCGGGUGCCAA`: “RBNS enrichment (R)” 22.8.
`GGGAGUUCUACAGUCCGACGAUCUUCCCUUCCUUAUGUCUCCAGUCUGGUGCCAGGUAGUGGAGUAAAAAAGGAGACAGUUUAUUUUUUUAUUCUAUGUGCACACUUACAGUAUACAUAUAUAUUUAUAUCACUGGAAUUCUCGGGUGCCAA`: “RBNS enrichment (R)” 0.985.
For `GGGAGUUCUACAGUCCGACGAUCAGCAGGCAUGUUGAAGAGUUGAGUGAUCACGCUGGAGAUGAAGGGUUGGACAUGGAUUGACUGGGAAAAGGCCUGGGUCCAUUGGAGUAAAGAUAACCUAGUCGAUUGAAUGGAAUUCUCGGGUGCCAA`, “RBNS enrichment (R)” read 17.

Sample 2
Target: Histone acetyltransferase KAT6A, winged helix 1, GST fusion (KAT6A, Homo sapiens, UniProt Q92794, residues 1-85)
Technique: protein binding microarray
Form: double-stranded DNA, one strand shown
Matrix: in vitro
Tested at: not given
Setting: 8-mer, flanks averaged, mean of 2 arrays, mostly near background
Reference: not given
Reading: higher = stronger binding
Construct (chain): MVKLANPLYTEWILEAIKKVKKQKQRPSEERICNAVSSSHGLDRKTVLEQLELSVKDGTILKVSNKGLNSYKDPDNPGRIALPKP
`AGTCTGTG` has an E-score of -0.278.
With `TCTGCCAA` the E-score was -0.226.
The E-score of `GAGGCATC` is reported as -0.0498.

Other studies, line by line
For `PhoQ, residues 284 288 289 292 302 303 SSTMSV`, the fold induction was 4.65 (PhoP, residues 12 14 15 18 19 TTLRV (Escherichia coli, UniProt P23836); Sort-seq, refers to: YFP reporter; E. coli; PhoQ-PhoP variant library, together with: 10 µM Mg2+; reference: high Mg2+ state, higher = stronger signaling).
For `GCCTAGCACTCATCTCTCAAAAGTCACACTGTGCTAGTCTTGATTCGCTTGACGCTGCTG`, the log fluorescence was 0.302 z-score (Interferon regulatory factor 5, full length, phosphomimetic (IRF5, Homo sapiens, UniProt Q13568-2, residues 1-514, K96S/S451D/S453D/S456D/S462D); protein-binding microarray; double-stranded DNA, one strand shown, in vitro; 250 nM, 60-bp whole probe, together with: salmon DNA 0.4 mg/ml; reference: random background probes, higher = stronger binding).

A few entries again (sample 1):
For `GGGAGUUCUACAGUCCGACGAUCAGCAGGCAUGUUGAAGAGUUGAGUGAUCACGCUGGAGAUGAAGGGUUGGACAUGGAUUGACUGGGAAAAGGCCUGGGUCCAUUGGAGUAAAGAUAACCUAGUCGAUUGAAUGGAAUUCUCGGGUGCCAA`, “RBNS enrichment (R)” read 17.
